Measured values from different studies.
Protocols differ between the studies behind these lines.

| Compound | assay | test system | conditions | tumour growth inhibition [%] |
| --- | --- | --- | --- | --- |
| CN1CCC(N[C@@H]2CCc3[nH]c4c(C(N)=O)ccc(-c5ccccc5Cl)c4c3C2)CC1 |  | NOD/SCID mouse H446 xenograft | intravenous, 10 mg/kg every three days | 85 |
| Cc1cc(O)cc(O)c1C(=O)c1c2c3c(c(O)cc(C)c3oc1=O)C(=O)c1c(O)cc(O)cc1-2 |  | H22 subcutaneous, mouse | intraperitoneal, 15 mg/kg daily | 62 |
| Cn1c(=O)n(-c2ccc(C(C)(C)C#N)cc2)c2c3cc(-c4cnc5ccccc5c4)ccc3ncc21 |  | PC-3 xenograft, mouse | oral, 30 mg/kg once daily, 14 days | 67.6 |
| Cc1ccc(CN2C(=O)/C(=N\c3ccc(Cl)cc3Br)c3ccccc32)cc1 |  | mouse, B16-F10 tumour | intraperitoneal, 20 mg/kg | 76.1 |
| NC(=O)c1cccnc1.O.O=c1[nH]cc(F)c(=O)[nH]1.O=c1[nH]cc(F)c(=O)[nH]1.O=c1[nH]cc(F)c(=O)[nH]1 |  | nude mouse HCT-116 xenograft | 0.012 mmol/kg/day, 21 days | 28.5 |
| CN1Cc2cnc3ccc(-c4ccc(N)nc4)nc3c2N(c2cccc(C(F)(F)F)c2)C1=O |  | PC-3 xenograft, mouse | oral, 60 mg/kg once daily, 14 days | 82.1 |
| N#Cc1cccc(-c2ccc(=O)n(Cc3cccc(-c4ncc(OCC5CCN(CC(=O)N6CCN(c7ccc8c(c7)C(=O)N(C7CCC(=O)NC7=O)C8=O)CC6)CC5)cn4)c3)n2)c1 (stereo not drawn) |  | mouse Hs746T xenograft | oral, 40 mg/kg daily, 12 days | 99.2 |
| CO.Cc1ccc2c(Cl)cc(Cl)c([O-])c2n1.Cc1ccc2c(Cl)cc(Cl)c([O-])c2n1.[Co+2].c1ccc2nc3c4cccnc4c4ncccc4c3nc2c1 | refers to: tumour weight | HeLa xenograft, nude mouse | 2.0 mg/kg every 2 days, 21.0 days | 43.7 |
| N#Cc1cccc(-c2ccc(=O)n(Cc3cccc(-c4ncc(OCC5CCN(CC(=O)NCCOCCNc6ccc7c(c6)C(=O)N(C6CCC(=O)NC6=O)C7=O)CC5)cn4)c3)n2)c1 (stereo not drawn) |  | mouse Hs746T xenograft | oral, 20 mg/kg daily, 12 days | 71.4 |
| O=c1[nH]c(N2CCC3(CC2)CN(CCO)c2cc(F)cc(F)c23)nc2c1CCCC2 |  | mouse COLO 320DM xenograft | intraperitoneal, 300 mg/kg once daily, 5 days on 2 off, 2 weeks | 44.2 |
| CN1CCN(c2ccc(Nc3ncc(Cl)c(Nc4ccccc4P(C)(C)=O)n3)cc2Br)CC1 |  | mouse, PC9-OR xenograft | oral, 60 mg/kg once daily, 14 days | 137 |
| Brc1ccc(Nc2nc(NN=Cc3c[nH]c4ccccc34)nc(N3CCOCC3)n2)cc1 |  | mouse A549 xenograft | ip, 70 mg/kg daily, 14 days | 45 |
| C=CC(=O)N1C[C@H](C)N(c2nc(OC[C@@]34CCCN3C[C@H](F)C4)nc3c(F)c(-c4ccc(F)c5sc(N)c(C#N)c45)c(C(F)(F)F)cc23)C[C@H]1C |  | mouse MIA PaCa-2 xenograft | oral, 1 mg/kg daily, 28 days | 69 |
| CC(=O)Oc1c2c(c3ccc4c(c3c1OC(C)=O)C=CC(=O)C4(C)C)OC[C@@H]2C |  | mouse 4T1 tumour | intravenous, 10 mg/kg daily | 61.5 |
| Cn1cc(-c2cc(N3CCCCS3(=O)=O)ccc2N[C@H]2CC[C@H](C)CC2)c2cc[nH]c2c1=O (stereo in doubt) |  | mouse, SMOA1 medulloblastoma allograft, SMO W539L | oral, 1 mg/kg twice daily | 68.7 |
